Experimental data pooled from the literature.
Numbered parts are unrelated; each lists some results of a single study. Substitutions count along the parent as printed.

Sample 1
Target: CCNF, cyclin fold, Cln2 fusion (human)
Technique: yeast growth competition, sequencing
Medium: yeast
Notes: strong parent motif
Reference: not given
Reading: higher = stronger binding
Starting sequence: E2F1 docking peptide (human); PPVKRRLDFETDH
For `PPVKRRLAFETDH [D8A]`, “normalised enrichment score” read 8.01.
`PPVKRRLDFEYDH [T11Y]`: “normalised enrichment score” 7.28.
Under “normalised enrichment score”, `PPVKRRLDFETQH [D12Q]` is recorded as 7.64.
`PPVKRRFDFETDH [L7F]` — result for “normalised enrichment score”: 0.199.

Sample 2
Target: Sal-like protein 4, full length isoform B (SALL4, Homo sapiens, UniProt Q9UJQ4-2, residues 1-616)
Technique: universal PBM
Form: double-stranded DNA, one strand shown
Medium: in vitro
Tested at: not given
Notes: 8-mer, flanks averaged, mean of replicates
Reading: higher = stronger binding
`CTTCGCGA` has an E-score of -0.178.
The E-score of `ACATGGAC` is reported as 0.0201.
`AAAGTCCT` gave an E-score of -0.15.
With `AAGCCAAT` the E-score was 0.125.
The E-score of `ACTGTTTG` is reported as 0.106.
With `CAACTACG` the E-score was 0.0797.
The E-score of `CCTATTAG` is reported as 0.186.

Sample 3
Target: Interferon regulatory factor 5, full length, phosphomimetic (IRF5, Homo sapiens, UniProt Q13568-2, residues 1-514, K96S/S451D/S453D/S456D/S462D)
Technique: protein-binding microarray
Form: double-stranded DNA, one strand shown
Medium: in vitro
Tested at: 250 nM
Notes: 60-bp whole probe
With: salmon DNA 0.4 mg/ml
Reference: random background probes
Reading: higher = stronger binding
Shared flanks, not repeated: GCCTAGCAC … GTCTTGATTCGCTTGACGCTGCTG
For `TTAGATATCGGGTTTAGATTAGTGCTA`, the log fluorescence was 2.21 z-score.
For `CCCTAGGGGCTCTCAGAGATGTGCTAG`, the log fluorescence was -0.859 z-score.
The log fluorescence of `TCAGCTTCCTCTTTCTCACTGTGCTAG` is reported as 0.678 z-score.
With `GACAGTCTCGGTCTCGGGACGTGCTAG` the log fluorescence was 0.72 z-score.
The log fluorescence of `GACGGTATCGACACTGCGGACGTGCTA` is reported as 1.56 z-score.
With `GACGGTATCGGTTTCGGGAAGTGCTAG` the log fluorescence was 8.84 z-score.

Other studies, line by line
With `PhoQ, residues 284 288 289 292 302 303 TGYLSA` the fold induction was 11.6 (PhoP, residues 12 14 15 18 19 GQALL (Escherichia coli, UniProt P23836); Sort-seq, refers to: YFP reporter; E. coli; PhoQ-PhoP variant library, with: 10 µM Mg2+; reference: high Mg2+ state, higher = stronger signaling).

Excerpt of the above (sample 1):
`PPVKRRFDFETDH [L7F]` — result for “normalised enrichment score”: 0.199.
